Measured values gathered from unrelated publications.
Every numbered part comes from another study and shows a few of its results, in no order. Changes are numbered by the printed parent chain.

Set 1
Target: Histone acetyltransferase KAT6A, winged helix 2, GST fusion (KAT6A, Homo sapiens, UniProt Q92794, residues 85-181)
Technique: protein binding microarray
Molecule type: double-stranded DNA, one strand shown
Medium: in vitro
Concentration: not given
Notes: 8-mer, flanks averaged, mean of 2 arrays, mostly near background
Relative to: not given
Direction: higher = stronger binding
Measurement: E-score
Construct (chain): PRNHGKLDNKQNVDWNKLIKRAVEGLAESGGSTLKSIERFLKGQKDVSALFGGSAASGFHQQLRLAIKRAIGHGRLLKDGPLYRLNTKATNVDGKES
GCCGCGTA: 0.0413
CTAAGAGA: 0.00362
ATCTAATA: 0.0237
TCCCGCGA: 0.11
AAAAGCGC: 0.0311
CTGGTTTA: -0.0919
CCGAGTCA: 0.076
GATCGGGA: 0.0309
CCTTGTCA: 0.000505
AATATCTA: -0.126
CCGGAACC: 0.129
CGTTAATC: -0.0636
CAACTGCG: 0.0741
CTTTACAC: 0.0376
CCCGGGAC: 0.178
AACGCGGG: 0.156
CTCGAGGA: -0.0267
AACTTACT: -0.209
ACGAGTTA: -0.0137
CGTGGATC: -0.0713
CATACATA: -0.0305
AACGGCCG: 0.109
ACCGAAGG: 0.0717
GCGCAACA: 0.132
ATAGTACC: -0.146

Set 2
Target: Prothrombin, mature alpha-thrombin (F2, Homo sapiens, UniProt P00734)
Technique: aptamer microarray, sandwich
Molecule type: DNA with 2'F-ANA
Medium: in vitro
Concentration: 200 nM
Notes: whole 15-mer aptamer, many near background
Added: Cy3 exosite-II aptamer, 400 nM
Direction: higher = stronger binding
Measurement: mean fluorescence intensity
Sequence: GGTTGGTGTGGTTGG
2'F-ANA at 1 2 3 4 6 10: 104 a.u.
2'F-ANA at 2 3 5 6 7 10 11 12 14: 47 a.u.
2'F-ANA at 1 2 3 5 6 10 11 15: 49.4 a.u.
2'F-ANA at 1 3 4 6 7 9 10 12 13: 71.7 a.u.
2'F-ANA at 1 3 5 6 7 12 13: 86.9 a.u.
2'F-ANA at 1 9 12 13 15: 315 a.u.
2'F-ANA at 2 3 4 5 7 8 11 13 14 15: 73.2 a.u.
2'F-ANA at 1 2 6 7 9 10 12 15: 70.5 a.u.
2'F-ANA at 3 4 7 9 12 13 14: 290 a.u.
2'F-ANA at 1 2 3 4 5 7 9 10: 59.4 a.u.
2'F-ANA at 1 2 4 5 7 10 11 12: 49.8 a.u.
2'F-ANA at 1 2 3 7 9 13 14 15: 69.7 a.u.
2'F-ANA at 1 2 4 7 8 10 15: 50 a.u.
2'F-ANA at 3 4 5 6 9 10 11 15: 55.4 a.u.
2'F-ANA at 1 5 8 9 11 13 14 15: 47.7 a.u.
2'F-ANA at 2 3 4 6 10 11 15: 186 a.u.
2'F-ANA at 4 5 7 12 14: 71.6 a.u.
2'F-ANA at 3 4 6 10 11 12 13 14 15: 165 a.u.
2'F-ANA at 1 3 4 6 8 11 12 13 15: 247 a.u.
2'F-ANA at 2 4 6 8 9 13 15: 169 a.u.
2'F-ANA at 2 3 5 7 10 12 13 14 15: 56.2 a.u.
2'F-ANA at 2 4 5 6 10 12 13 15: 55.7 a.u.
2'F-ANA at 1 4 6 9 10 12: 58 a.u.
2'F-ANA at 1 2 5 6 7 8 9 10 12 13 14 15: 60.2 a.u.
2'F-ANA at 5 8 9 14: 46.6 a.u.

Set 3
Target: RING finger protein unkempt homolog, zinc fingers 1-6, GST-SBP tag (UNK, Homo sapiens, UniProt Q9C0B0, residues 30-357)
Chain of UniProt Q9C0B0 (30-357, looked up): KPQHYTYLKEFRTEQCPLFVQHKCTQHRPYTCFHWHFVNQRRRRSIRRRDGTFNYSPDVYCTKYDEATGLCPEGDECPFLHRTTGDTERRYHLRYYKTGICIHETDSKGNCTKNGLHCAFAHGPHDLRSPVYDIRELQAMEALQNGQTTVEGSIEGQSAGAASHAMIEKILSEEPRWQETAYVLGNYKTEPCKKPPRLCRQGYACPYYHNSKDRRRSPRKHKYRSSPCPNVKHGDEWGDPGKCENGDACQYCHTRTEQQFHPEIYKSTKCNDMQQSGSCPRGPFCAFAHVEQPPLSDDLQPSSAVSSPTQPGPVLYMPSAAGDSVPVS
Technique: RNA Bind-n-Seq
Molecule type: RNA
Medium: in vitro
Concentration: not given
Notes: RNA with constant flanks, ends assumed
Relative to: input RNA pool
Direction: higher = stronger binding
Measurement: bound/input enrichment
Constant ends, left off below: GGGAGUUCUACAGUCCGACGAUC … CAACAGAGGAUUGAGCAUCA
UUGACAUUACAGCCAAAAUGGUGCUGUCCCAGAGACAACGAGAUGAACUAAAUCGAGCUACCGCAGAUUAUCUUCGUUCAAAUGGCUAUGAAGAGGCAUAUUCCGUUUUUAAAAAGGAAG: 0.188 ratio
UAAAAUCUUUGUACUUUUUACAUGAUUGCUGUAUGUAUAUUUUGUUUUAAAUCUAAUAAAAUCCGGGACAGAGAGUGACUCGCUGGGGUUCUUGGGGUCCUUGAGAAUUAAAUUUGUCAA: 0.513 ratio
AUUCGCCUUUGUCUUGUACUUCUGUGUUCAUUCUCCUCCCCCACCCCCAAUUUUUGCCCGUGUGUCCACUAUCCCAAUCAAAGAAUUACAGUAUACGUCACCCCAGAACCCGCAGAUGUG: 0.711 ratio
UAUUGUACCUCUACUCUGCGUCACUUCUUGCCUCUGUUAGAAAAAAGUCAAGGAGAAGAUGCCGAAGAUGACCACAGAGCAGAACUGCUAAAACAGCUGGGAGACUACAGGUUCUCUGGA: 0.246 ratio
AUAAUGUUUGAGUCCUUCAAUGUUCCAGGCUUGUACAUUGCUGUGCAGGCUGUUCUUGCCUCCGCUGCAUCUUGGACCUCAAGACAAGUAGGAGAACGGACGUUGACCGGUACGGUAAUA: 0.212 ratio
UGCGUCCUUUUUCGUUUUUCGGACGAUGCCUUCAAUACCACCUUUAUUUCCACCACCGGAACCGACUUUAAGAUCAAAACAGUGGAACUACAAGGAAAGAAGAUCAAGCUACAGAUAUGG: 0.187 ratio
CCUCGUGCUGCCACAGUUGUUGCUCGUGGCCCCUUGAAGUGCGUUAAGCUGGACCGACCCCGAUUUGAACGUGUUCUUGGCCCAUGCUCAGACAUCCUCAAACGAAACAUCCAGCAGUAC: 0.107 ratio
UCUACAUCUUCAUCUAUGCAGCCCAGCCCUGUAUCAAAUCAGUCACUUUUAUCAGAAUCUGCCGCAUCUUCUCAAUUGGACAGUACAUCUGUGGACAAAGCAGUACCUGAAACAGAAGAU: 0.299 ratio

Set 4
Target: CCNE2, cyclin fold, Cln2 fusion (human)
Technique: yeast growth competition, sequencing
Medium: yeast
Notes: weak parent motif
Relative to: not given
Direction: higher = stronger binding
Measurement: normalised enrichment score
Starting sequence: PKN2 docking peptide (human); VSAVQKLDFSDTM; partner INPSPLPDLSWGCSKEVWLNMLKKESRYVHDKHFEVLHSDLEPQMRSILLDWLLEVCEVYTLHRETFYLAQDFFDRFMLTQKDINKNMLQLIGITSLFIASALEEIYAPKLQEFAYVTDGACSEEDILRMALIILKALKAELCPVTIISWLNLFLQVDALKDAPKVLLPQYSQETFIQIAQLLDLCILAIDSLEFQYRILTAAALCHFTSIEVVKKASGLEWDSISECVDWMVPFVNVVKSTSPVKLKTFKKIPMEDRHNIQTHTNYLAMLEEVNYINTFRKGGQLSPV
VSAVQKIDFSDTM [L7I]: -0.239
FSAVQKLDFSDTM [V1F]: 0.456
VSAVQKLDKSDTM [F9K]: -0.488
VSAVQKLMFSDTM [D8M]: 0.694
HSAVQKLDFSDTM [V1H]: 0.333
VSAVQKLEFSDTM [D8E]: -0.301
VSNVQKLDFSDTM [A3N]: -0.37
VSAVQDLDFSDTM [K6D]: -0.358
VSAVQKPDFSDTM [L7P]: -0.287
VSAKQKLDFSDTM [V4K]: -0.479
VSAVQKSDFSDTM [L7S]: -0.371
VSAMQKLDFSDTM [V4M]: 0.0826
VSDVQKLDFSDTM [A3D]: -0.684
VFAVQKLDFSDTM [S2F]: -0.0112
VSAVQKLDFPDTM [S10P]: 0.558
GSAVQKLDFSDTM [V1G]: 0.147

Set 5
Target: ABI1, truncated, D143A, DHFR fusion (Arabidopsis thaliana)
Technique: DHFR PCA, deep sequencing
Medium: yeast
Notes: methotrexate growth selection, single substitutions
Added: (+)-ABA 0.0091 µM
Relative to: wild-type fitted maximum
Direction: higher = stronger binding
Measurement: relative binding score
Starting sequence: PYL1, truncated, DHFR fusion (Arabidopsis thaliana); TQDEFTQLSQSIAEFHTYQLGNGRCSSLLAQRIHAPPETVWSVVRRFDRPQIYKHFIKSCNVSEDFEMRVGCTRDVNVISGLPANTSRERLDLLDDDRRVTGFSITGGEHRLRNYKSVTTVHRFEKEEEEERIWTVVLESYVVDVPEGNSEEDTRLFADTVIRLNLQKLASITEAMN; partner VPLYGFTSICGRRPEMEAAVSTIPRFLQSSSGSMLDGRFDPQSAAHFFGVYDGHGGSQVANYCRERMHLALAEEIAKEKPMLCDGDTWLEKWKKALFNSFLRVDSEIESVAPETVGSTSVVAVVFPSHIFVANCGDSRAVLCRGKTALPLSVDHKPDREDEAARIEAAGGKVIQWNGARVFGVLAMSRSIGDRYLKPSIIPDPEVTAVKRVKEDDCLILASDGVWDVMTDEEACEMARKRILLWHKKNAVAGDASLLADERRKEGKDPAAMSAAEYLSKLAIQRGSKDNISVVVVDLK
T39F: 2.74%
L112N: -7.67%
T120A: -4.75%
R132V: 24.1%
C72F: 0.534%
A175D: 22.8%
D65V: 3.89%
K116Q: 22.5%
D75E: 48.2%
V62Y: 3.75%
T120E: -10.1%
F103Q: -4.28%
L91Y: 0.481%
L8Y: 25.6%
D3W: 20.2%
F66C: 1.67%
A35L: -1.03%

A few entries again (set 5):
L112N: -7.67%
C72F: 0.534%
L91Y: 0.481%
F103Q: -4.28%
L8Y: 25.6%
